# Assay results from different studies.
# Lines come from different studies, so protocols differ. “And” joins repeats or separate records; there may be more than shown. pIC50: −log10 of the molar value.
# Target: Amine oxidase [flavin-containing] B (MAOB, Homo sapiens, UniProt P27338)
# UniProt P27338, sequence (whole entry, looked up): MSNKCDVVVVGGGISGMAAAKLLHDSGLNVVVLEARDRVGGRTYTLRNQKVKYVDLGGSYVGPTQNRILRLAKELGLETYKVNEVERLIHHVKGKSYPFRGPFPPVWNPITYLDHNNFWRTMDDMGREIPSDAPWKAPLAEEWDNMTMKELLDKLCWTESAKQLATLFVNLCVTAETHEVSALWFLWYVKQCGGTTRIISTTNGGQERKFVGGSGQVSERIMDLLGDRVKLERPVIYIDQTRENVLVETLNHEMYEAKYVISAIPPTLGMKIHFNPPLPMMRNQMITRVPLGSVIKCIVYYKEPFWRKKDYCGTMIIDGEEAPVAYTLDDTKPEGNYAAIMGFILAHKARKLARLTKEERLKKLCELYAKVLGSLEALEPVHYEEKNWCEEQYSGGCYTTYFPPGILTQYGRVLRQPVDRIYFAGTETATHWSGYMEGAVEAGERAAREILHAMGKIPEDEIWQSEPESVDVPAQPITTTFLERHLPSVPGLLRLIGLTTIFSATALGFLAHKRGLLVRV
# Action: inhibitor
SMILES,effect on,method,time,pH,temperature,together with,pIC50
O=C1Nc2ccc(F)cc2/C1=N/N=C/c1cccc(OCc2ccccc2)c1,enzyme activity,,,,,,6.22
COc1cc2c(c(OC)c1OC)C(=O)c1c(cc(C)c(OC3OC(CO)C(O)C(O)C3O)c1OC)C2=O (centres unmarked),enzyme activity,,,,,,< 3.40
O=C(/C=C/c1ccc2c(c1)OCO2)c1ccc(Cl)s1,enzyme activity,fluorescence,,,,,6.37
O=C1Nc2ccc(Br)cc2/C1=N/N=C/c1cccc(OCc2ccccc2)c1,enzyme activity,,,,,,5.09
COc1cc(C)cc(C2NC(=O)c3c(OC)cc(O)cc32)c1O (racemic),enzyme activity,fluorescence,,pH 7.4,,,4.18
O=C1Nc2ccc(Cl)cc2/C1=N/N=C/c1cccc(OCc2ccccc2)c1,enzyme activity,,,,,,5.22
CCC/C=C1\OC(=O)C2=C1CC[C@H](O)[C@H]2O,enzyme activity,fluorescence,,,,,3.52
COc1cc(C)cc(C2(O)NC(=O)c3c(OC)cc(OCc4ccccc4)cc32)c1OCc1ccccc1 (racemic),,,20 min,pH 7.4,37 °C,kynuramine 30 µM,< 4.00
O=C(/C=C/c1ccc2c(c1)OCCO2)c1ccc(Cl)s1,enzyme activity,fluorescence,,,,,6.96
COc1cc(OC2OC(COC3OC(CO)C(O)C(OC4OC(CO)C(O)C(O)C4O)C3O)C(O)C(O)C2O)c2c(O)c3c(=O)cc(C)oc3cc2c1 (centres unmarked),enzyme activity,,,,,,< 3.40
COc1cc(OC)cc(C(=O)c2cc(C)cc(OC)c2OC)c1,enzyme activity,fluorescence,,pH 7.4,,,4.14
Cc1cc(O)c2c(c1)C(=O)c1cccc(OC3OC(COC4OC(CO)C(O)C(OC5OC(CO)C(O)C(O)C5O)C4O)C(O)C(O)C3O)c1C2=O (centres unmarked),enzyme activity,,,,,,< 3.40
COc1cc(OC)c2c(c1)C(N)(c1cc(C)cc(OC)c1OC)OC2=O (racemic),,,20 min,pH 7.4,37 °C,kynuramine 30 µM,< 4.00
COc1cc(/C=C/COC(=O)/C=C/c2ccc(O)c(OC)c2)ccc1O,enzyme activity,fluorescence,,,,,5.69
Cc1ccc2c(c1)/C(=N/N=C/c1ccc(OCc3cccc(F)c3)cc1)C(=O)N2,enzyme activity,,,,,,5.39
Cc1cc(=O)c2c(O)c3c(OC4OC(CO)C(O)C(O)C4O)cccc3cc2o1 (centres unmarked),enzyme activity,,,,,,< 3.40
Cc1ccc2c(c1)/C(=N/N=C/c1ccc(OCc3ccccc3)cc1)C(=O)N2,enzyme activity,,,,,,5.18
CCCCC1OC(=O)C2=CCCCC21 (centres unmarked),enzyme activity,fluorescence,,,,,6.91
O=C(/C=C/c1ccc2c(c1)OCO2)c1ccc(Br)s1,enzyme activity,fluorescence,,,,,6.10
COc1ccc2c(c1)/C(=N/N=C/c1ccc(OCc3ccccc3)cc1)C(=O)N2,enzyme activity,,,,,,4.75
COc1c(OC2OC(CO)C(O)C(O)C2O)cc2c(c1O)C(=O)c1c(cc(C)c(O)c1OC)C2=O (centres unmarked),enzyme activity,,,,,,3.74
CCC/C=C1\OC(=O)C2=C1CCC=C2,enzyme activity,fluorescence,,,,,3.20
COc1cc(O)c2c(c1)C(c1cc(C)cc(OC)c1OC)NC2=O (racemic),enzyme activity,fluorescence,,pH 7.4,,,> 4.70 and 4.80
COc1cc(/C=C/C(=O)O)ccc1O,enzyme activity,fluorescence,,,,,4.57
COc1c(OC2OC(CO)C(O)C(O)C2O)c(C)cc2c1C(=O)c1c(O)cccc1C2=O (centres unmarked),enzyme activity,,,,,,< 3.40
O=C1Nc2ccc(F)cc2/C1=N/N=C/c1ccc(OCc2cccc(F)c2)cc1,enzyme activity,,,,,,5.92

# A few entries again:
SMILES,effect on,method,time,pH,temperature,together with,pIC50
COc1cc(C)cc(C2(O)NC(=O)c3c(OC)cc(OCc4ccccc4)cc32)c1OCc1ccccc1 (racemic),,,20 min,pH 7.4,37 °C,kynuramine 30 µM,< 4.00
O=C(/C=C/c1ccc2c(c1)OCCO2)c1ccc(Cl)s1,enzyme activity,fluorescence,,,,,6.96
COc1cc(OC2OC(COC3OC(CO)C(O)C(OC4OC(CO)C(O)C(O)C4O)C3O)C(O)C(O)C2O)c2c(O)c3c(=O)cc(C)oc3cc2c1 (centres unmarked),enzyme activity,,,,,,< 3.40
COc1cc(OC)cc(C(=O)c2cc(C)cc(OC)c2OC)c1,enzyme activity,fluorescence,,pH 7.4,,,4.14
